{"data": "Measurements pooled from the literature", "note": "Every numbered part comes from another study and shows a few of its results, in no order. Positions count from the first letter of the parent shown."}
{"data": "Set 1", "target": "vanadate, free oxyanion", "method": "microfluidic competitive inhibition", "medium": "in vitro, cell-free expressed", "tested at": "not given", "notes": "derived from inhibition constants, unchanged parent 676 nM", "direction": "lower = stronger binding", "starting sequence": "PafA, mature enzyme, eGFP fusion (Elizabethkingia meningoseptica, UniProt Q9KJX5); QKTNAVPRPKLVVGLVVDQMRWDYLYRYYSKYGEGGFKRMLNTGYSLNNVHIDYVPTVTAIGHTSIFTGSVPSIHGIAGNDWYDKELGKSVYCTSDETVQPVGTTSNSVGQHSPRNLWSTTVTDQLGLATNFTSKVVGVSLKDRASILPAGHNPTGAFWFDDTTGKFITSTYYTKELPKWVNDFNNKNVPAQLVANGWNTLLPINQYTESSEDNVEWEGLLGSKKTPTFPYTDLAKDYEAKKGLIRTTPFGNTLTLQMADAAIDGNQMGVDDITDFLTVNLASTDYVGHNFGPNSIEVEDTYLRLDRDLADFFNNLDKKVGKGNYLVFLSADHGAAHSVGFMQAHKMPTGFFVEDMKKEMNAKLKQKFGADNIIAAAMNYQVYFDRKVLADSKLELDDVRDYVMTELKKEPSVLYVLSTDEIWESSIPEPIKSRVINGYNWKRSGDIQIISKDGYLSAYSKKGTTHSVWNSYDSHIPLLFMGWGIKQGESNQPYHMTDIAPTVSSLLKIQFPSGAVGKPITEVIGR"}
{"Change": "T98G", "oxyanion analog dissociation constant": "0.629 µM"}
{"Change": "L202V", "oxyanion analog dissociation constant": "0.803 µM"}
{"Change": "S73G", "oxyanion analog dissociation constant": "0.492 µM"}
{"Change": "V413A", "oxyanion analog dissociation constant": "0.743 µM"}
{"Change": "M404V", "oxyanion analog dissociation constant": "0.891 µM"}
{"data": "Set 2", "target": "Centromere-binding protein 1, full length, N-terminal tag (CBF1, Saccharomyces cerevisiae, UniProt P17106, residues 1-351)", "method": "protein-binding microarray", "form": "double-stranded DNA, one strand shown", "medium": "in vitro", "tested at": "0.8 µM", "notes": "whole 60-bp probe, no competitor", "direction": "higher = stronger binding", "all sequences stand within": "… GTCTTGATTCGCTTGACGCTGCTG", "sequence of UniProt P17106 (whole entry, looked up)": "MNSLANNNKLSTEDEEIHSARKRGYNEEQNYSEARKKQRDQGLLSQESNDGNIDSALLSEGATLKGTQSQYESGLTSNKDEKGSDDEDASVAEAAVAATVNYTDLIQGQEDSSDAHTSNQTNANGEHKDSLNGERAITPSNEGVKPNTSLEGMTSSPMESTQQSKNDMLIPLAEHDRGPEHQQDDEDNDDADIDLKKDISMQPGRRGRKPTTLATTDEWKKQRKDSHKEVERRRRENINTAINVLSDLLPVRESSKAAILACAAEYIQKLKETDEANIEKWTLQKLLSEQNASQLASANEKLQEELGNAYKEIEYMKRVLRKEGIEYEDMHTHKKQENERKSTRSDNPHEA"}
{"Strand": "TGTACGAAGCTATAGCTCGTGTTTATAGTAGTTAGG", "fluorescence intensity": "533 a.u."}
{"Strand": "GAAAGCGAGTTAACTAACGTGTTCGCCGGGCAATAG", "fluorescence intensity": "510 a.u."}
{"Strand": "GAATGTAAATGTAAACACGAGGCAAACTTCTCCTAG", "fluorescence intensity": "690 a.u."}
{"Strand": "TGTACGAAGCTATATCAGGAGGATATAGTAGTTAGG", "fluorescence intensity": "532 a.u."}
{"Strand": "CTATGTTTGTTTACGCACGTTTATATATTTAACTTC", "fluorescence intensity": "652 a.u."}
{"Strand": "GAATTAAGAAGCCGCAAGGTCACCTAAATACCTTAG", "fluorescence intensity": "484 a.u."}
{"Strand": "CTACCCTGGTTTGGTCACGCAAAACCGAAAGGCTTC", "fluorescence intensity": "654 a.u."}
{"Strand": "GAATTAGTCATATCAAACATGACAAATATAACATAG", "fluorescence intensity": "577 a.u."}
{"data": "Set 3", "target": "Protein max, full length (MAX, Homo sapiens, UniProt P61244-2, residues 1-151)", "method": "protein-binding microarray", "form": "double-stranded DNA, one strand shown", "medium": "in vitro", "tested at": "not given", "notes": "k-mer, scored over probes, only values ≥0.25", "direction": "higher = stronger binding"}
{"Strand": "CGTGGCAA", "E-score": 0.339}
{"Strand": "ACACGCGA", "E-score": 0.411}
{"Strand": "CACGAGGA", "E-score": 0.471}
{"Strand": "CGCCCACG", "E-score": 0.389}
{"Strand": "CGTAGCAC", "E-score": 0.267}
{"Strand": "AGGAGCAC", "E-score": 0.271}
{"Strand": "CATGTAAC", "E-score": 0.331}
{"Strand": "CTCATGTA", "E-score": 0.291}
{"data": "Set 4", "target": "CCND1, cyclin fold, Cln2 fusion (human)", "method": "yeast growth competition, sequencing", "medium": "yeast", "notes": "weak parent motif", "relative to": "not given", "direction": "higher = stronger binding", "starting sequence": "viral docking peptide; CKVKRKLFGSENI; partner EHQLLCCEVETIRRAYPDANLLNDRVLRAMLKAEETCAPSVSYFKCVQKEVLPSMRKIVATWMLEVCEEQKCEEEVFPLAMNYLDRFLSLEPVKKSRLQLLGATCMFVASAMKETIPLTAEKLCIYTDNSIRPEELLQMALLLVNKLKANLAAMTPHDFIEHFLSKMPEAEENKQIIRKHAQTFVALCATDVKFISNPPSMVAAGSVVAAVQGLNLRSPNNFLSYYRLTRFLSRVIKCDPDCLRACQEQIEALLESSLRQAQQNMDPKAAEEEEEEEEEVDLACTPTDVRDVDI"}
{"Change": "CKVKRKLFGSEAI [N12A]", "normalised enrichment score": 0.363}
{"Change": "CKVKKKLFGSENI [R5K]", "normalised enrichment score": -0.428}
{"Change": "CKVKRKLFGAENI [S10A]", "normalised enrichment score": 0.456}
{"Change": "CKVKAKAFGSENI [R5A L7A]", "normalised enrichment score": 0.288}
{"Change": "AKVKRKLFGSENI [C1A]", "normalised enrichment score": 0.938}
{"Change": "CKVKKKLLGSENI [R5K F8L]", "normalised enrichment score": 0.0671}
{"Change": "CKVKRKAFGSENI [L7A]", "normalised enrichment score": 0.0101}
{"Change": "CAVKRKLFGSENI [K2A]", "normalised enrichment score": 0.586}
{"Change": "CKVKRKLFGSENA [I13A]", "normalised enrichment score": 0.825}
{"note": "A few entries again (set 4):"}
{"Change": "CKVKRKLFGAENI [S10A]", "normalised enrichment score": 0.456}
{"Change": "CKVKAKAFGSENI [R5A L7A]", "normalised enrichment score": 0.288}
{"Change": "AKVKRKLFGSENI [C1A]", "normalised enrichment score": 0.938}
